Experimental data from different studies.
Each line is one published result; not all experiments were run side by side. Values joined by “and” are separate records of one study, mostly repeats; a detail may differ. ± marks the error that the study gave.
MTNR1A: Melatonin receptor type 1A (MTNR1A, Homo sapiens, UniProt P48039)
PLCG2 residues 1-1195: 1-phosphatidylinositol 4,5-bisphosphate phosphodiesterase gamma-2, residues 1-1195 (PLCG2, Homo sapiens, UniProt P16885)
GBA2: Beta-glucosidase (GBA2, Homo sapiens, UniProt Q9HCG7)

SMILES = COc1ccc2[nH]c(-c3cccc4ccccc34)c(CCNC(=O)CI)c2n1; target or system = MTNR1A; test = β-arrestin recruitment, agonist; endpoint = EC50; value = 4790 nM
SMILES = CC(C)Oc1cc(Cl)ccc1CNc1cc(-c2ccccc2)nc2ncnn12; target or system = G-protein coupled receptor 3 (GPR3, Homo sapiens, UniProt P46089, V196W); test = cAMP level, agonist, GloSensor; conditions = receptor V196W mutant; endpoint = EC50; value = 3630 nM and 3310 nM and 2140 nM and 4900 nM
SMILES = CCCn1c(=O)c2cc(F)ccc2n2c(=S)[nH]nc12; target or system = PLCG2 residues 1-1195; test = enzyme activity, activator; test system = lipid vesicles; conditions = 15 min preincubation, with: XY-69 substrate 0.5 µM; endpoint = EC50; value = 27000 nM
SMILES = Cc1c(C)c2ccc[n+]3c2c2c1ccc[n+]2[Ir-3]312([c]3ccccc3-c3ccc4ccc(Cl)cc4[n+]31)[c]1ccccc1-c1ccc3ccc(Cl)cc3[n+]12.F[P-](F)(F)(F)(F)F; target or system = Cyclin-dependent kinase 9, with cyclin T1 (CDK9, Homo sapiens, UniProt P50750); test = enzyme activity; endpoint = EC50; value = 355 ± 11.8 nM
SMILES = CC[C@H]([C@@H](C)c1ccc(O)cc1)[C@@H](CC)c1ccc(O)cc1; target or system = Estrogen receptor (ESR1, Homo sapiens, UniProt P03372); test = reporter gene, luciferase reporter (3xERE); test system = 293T; conditions = 24 h; endpoint = EC50; value = 14.7 nM
SMILES = O=C(O)c1ccccc1OCc1ccccc1Br; target or system = Ras-related protein Rab-2A (Canis lupus familiaris, UniProt P61105); test = GTP binding, flow cytometry bead; conditions = EDTA buffer, with: 100 nM BODIPY-GTP; endpoint = EC50; value = 251 nM
SMILES = COc1cc(I)c(Cc2cc(OC)c(OC)cc2CC(=O)OC(C)(C)C)cc1OC; target or system = MTNR1A; test = β-arrestin recruitment, agonist; endpoint = EC50; value = 1780 nM
SMILES = O=C(Nn1c(-c2cccc(Cl)c2)nc2ccccc2c1=O)c1ccccc1F; target or system = TRPM channel TRPM_PZQ (Schistosoma mansoni, UniProt A0A5K4F0X5); test = whole-cell inward current, activator, automated patch clamp; test system = HEK293; endpoint = EC50; value = 2200 ± 340 nM
SMILES = CC(=O)N(C)Cc1cccc(-c2cc3c(c(C(F)(F)F)c2)CCCC3N(C)C(=O)COC[C@@H]2CCNC[C@@H]2F)c1 (mixture of isomers); target or system = Translation initiation factor eIF2B subunit beta/Translation initiation factor eIF2B subunit delta, with phospho-eIF2α NTD (Homo sapiens, UniProt P49770+Q9UI10); test = phospho-eIF2α NTD dissociation, BLI; endpoint = EC50; value = 7900 nM
SMILES = CC(=O)N[C@@H]1[C@@H](O[C@@H]2O[C@H](C(=O)O)[C@@H](O[C@@H]3O[C@H](COS(=O)(=O)O)[C@@H](OS(=O)(=O)O)[C@H](O[C@@H]4O[C@H](C(=O)O)[C@@H](O[C@@H]5O[C@H](COS(=O)(=O)O)[C@@H](OS(=O)(=O)O)[C@H](O[C@@H]6O[C@H](C(=O)O)[C@@H](OS(=O)(=O)O)[C@H](OS(=O)(=O)O)[C@H]6OS(=O)(=O)O)[C@H]5NC(C)=O)[C@H](OS(=O)(=O)O)[C@H]4OS(=O)(=O)O)[C@H]3NC(C)=O)[C@H](OS(=O)(=O)O)[C@H]2OS(=O)(=O)O)[C@H](OS(=O)(=O)O)[C@@H](COS(=O)(=O)O)O[C@H]1N=[N+]=[N-]; target or system = Fibroblast growth factor 2 (Homo sapiens, UniProt P09038); test = fluorescence polarization competition; conditions = Fibroblast growth factor 2 23 nM, with: TAMRA-labelled probe; endpoint = EC50; value = 45 ± 9 nM
SMILES = Cn1c(=O)n(C2CCC(=O)NC2=O)c2ccc(C3CCN(CC(=O)Nc4cccc(CS(=O)(=O)N5CC[C@H](Nc6cccc(-c7sc(C(=O)O)c(OCC(=O)O)c7Cl)c6)CC5(C)C)c4)CC3)cc21 (stereo partly drawn); target or system = Tyrosine-protein phosphatase non-receptor type 7 (PTPN7, Homo sapiens, UniProt P35236); test = phosphatase activity; conditions = with: DiFMUP substrate; endpoint = EC50; value = > 10000 nM
SMILES = CC[C@H](C)[C@H]1C(=O)N(Cc2cc3ccccc3c3ccccc23)C[C@@H]2N(C(=O)NCCCC(F)(F)F)CCC(=O)N12; target or system = ATP-dependent Clp protease proteolytic subunit, mitochondrial (CLPP, Homo sapiens, UniProt Q16740, H116Y); test = activator; endpoint = EC50; value = 10400 ± 2300 nM
SMILES = CC1=NC(C)C(C)S1 (stereo not drawn); target or system = uncharacterized protein (Mus musculus, UniProt A0A140T8K4); test = cAMP, agonist; test system = HEK293 transfected with uncharacterized protein; endpoint = EC50; value = 53600 ± 3960 nM
SMILES = CNc1ncnc2c1ncn2C1OC(CO)C(O)C1O (stereo not drawn); target or system = Adenosine receptor A1 (ADORA1, Homo sapiens, UniProt P30542); test = G protein activation, agonist; endpoint = EC50; value = 1100 nM
SMILES = Nc1ncnc2c1ncn2[C@@H]1O[C@H](COP(=O)(O)OP(=O)(O)OC[C@H]2OC(O)[C@H](O)[C@@H]2O)[C@@H](O)[C@H]1OP(=O)(O)O (stereo partly drawn); target or system = TRPM2 (Nematostella vectensis, UniProt A7T1N0, E444C); test = agonist; endpoint = EC50; value = 160 ± 10 nM
SMILES = COc1cc(C2C(NC(=O)c3ccc(NC(=O)OC(C)(C)C)cc3)(C(=O)O)C(c3ccc(OC(=O)c4cccs4)c(OC)c3)C2(NC(=O)c2ccc(NC(=O)OC(C)(C)C)cc2)C(=O)O)ccc1OC(=O)c1cccs1 (stereo not drawn); target or system = Glucagon-like peptide 1 receptor (GLP1R, Homo sapiens, UniProt P43220, L144A); test = cAMP, agonist; endpoint = EC50; value = 166 nM
SMILES = OC[C@@H]1[C@@H](O)[C@H](O)[C@@H](O)CN1CCCCCOCc1ccc(-c2ccccc2F)cc1; target or system = GBA2; test = inhibitor, 4MU-β-D-glucopyranoside; test system = HEK293T homogenates overexpressing GBA2; how to read = baseline: GCS IC50 over GBA2 IC50; endpoint = selectivity ratio; value = 38
SMILES = COC1CN([C@H]2CC[C@H]([C@@]3(C)Oc4c(Cl)cc(C(=O)NCc5c(SC)cc(C)[nH]c5=O)c(C)c4O3)CC2)C1; test = RNA-seq, refers to: MAPRE3; test system = human, whole blood; conditions = dose not given, 24 h; how to read = baseline: pretreatment baseline; endpoint = log2 fold change; value = 1.7
SMILES = CCCCCCCC/C=C\CCCCCCCC(=O)NCCO; target or system = Transient receptor potential cation channel subfamily V member 1 (Trpv1, Mus musculus, UniProt Q704Y3, T557S); test = ion current, agonist, whole-cell patch clamp; conditions = 24 °C, T557S, +80 mV; endpoint = EC50; value = 530 ± 260 nM
SMILES = OC[C@@H]1[C@@H](O)[C@H](O)[C@@H](O)CN1CCCCCOCc1ccc(-c2ccccc2)cc1F; target or system = GBA2; test = inhibitor, 4MU-β-D-glucopyranoside; test system = HEK293T homogenates overexpressing GBA2; how to read = baseline: GCS IC50 over GBA2 IC50; endpoint = selectivity ratio; value = 313
SMILES = CCOC(=O)Nc1ccc(NCc2ccc(F)cc2)nc1N; target or system = PLCG2 residues 1-1195; test = enzyme activity, activator; test system = lipid vesicles; conditions = 15 min preincubation, with: XY-69 substrate 0.5 µM; endpoint = EC50; value = 14000 nM
SMILES = O=C(NC[C@@H](Cc1ccc(F)cc1)N1CCC(O)(C(F)(F)F)CC1)C1(c2ccc(Cl)cc2)CCCC1; target or system = Transient receptor potential cation channel subfamily A member 1 (TRPA1, Homo sapiens, UniProt O75762, L881I); endpoint = EC50; value = 9300 nM
SMILES = Cn1c(=O)[nH]c(=O)c2c1nc(CN1CCN(c3cccc(Cl)c3)CC1)n2Cc1cccc(Cl)c1; target or system = PLCG2 residues 1-1195; test = enzyme activity, activator; test system = lipid vesicles; conditions = 15 min preincubation, with: XY-69 substrate 0.5 µM; endpoint = EC50; value = 21000 nM
SMILES = CC(C)(C(=O)N1CCC(Nc2nc3c(c(=O)[nH]2)CCCC3)CC1)c1ccc(Cl)cc1; target or system = MRGPRD, part with Gi1 (Homo sapiens, UniProt Q8TDS7); test = Gi1 dissociation, agonist, BRET2; endpoint = EC50; value = 10.2 nM

For quick reference, copied from above:
SMILES = Cn1c(=O)n(C2CCC(=O)NC2=O)c2ccc(C3CCN(CC(=O)Nc4cccc(CS(=O)(=O)N5CC[C@H](Nc6cccc(-c7sc(C(=O)O)c(OCC(=O)O)c7Cl)c6)CC5(C)C)c4)CC3)cc21 (stereo partly drawn); target or system = Tyrosine-protein phosphatase non-receptor type 7 (PTPN7, Homo sapiens, UniProt P35236); test = phosphatase activity; conditions = with: DiFMUP substrate; endpoint = EC50; value = > 10000 nM
SMILES = CC(C)(C(=O)N1CCC(Nc2nc3c(c(=O)[nH]2)CCCC3)CC1)c1ccc(Cl)cc1; target or system = MRGPRD, part with Gi1 (Homo sapiens, UniProt Q8TDS7); test = Gi1 dissociation, agonist, BRET2; endpoint = EC50; value = 10.2 nM
SMILES = CNc1ncnc2c1ncn2C1OC(CO)C(O)C1O (stereo not drawn); target or system = Adenosine receptor A1 (ADORA1, Homo sapiens, UniProt P30542); test = G protein activation, agonist; endpoint = EC50; value = 1100 nM
